Measured values gathered from unrelated publications.
Every numbered part comes from another study and shows a few of its results, in no order. Several values in a cell are separate wells, animals, samples, runs or records.
Sequence of UniProt P28221 (whole entry, looked up): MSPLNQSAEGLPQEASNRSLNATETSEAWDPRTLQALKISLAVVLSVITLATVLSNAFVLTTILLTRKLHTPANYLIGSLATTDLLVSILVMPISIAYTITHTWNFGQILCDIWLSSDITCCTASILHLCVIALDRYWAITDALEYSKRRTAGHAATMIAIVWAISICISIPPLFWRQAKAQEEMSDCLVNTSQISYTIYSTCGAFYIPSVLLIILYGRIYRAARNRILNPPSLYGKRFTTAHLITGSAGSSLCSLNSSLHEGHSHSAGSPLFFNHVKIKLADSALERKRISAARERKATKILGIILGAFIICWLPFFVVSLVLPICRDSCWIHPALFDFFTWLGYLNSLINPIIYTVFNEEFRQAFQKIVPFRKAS
Sequence of UniProt P17948 (whole entry, looked up): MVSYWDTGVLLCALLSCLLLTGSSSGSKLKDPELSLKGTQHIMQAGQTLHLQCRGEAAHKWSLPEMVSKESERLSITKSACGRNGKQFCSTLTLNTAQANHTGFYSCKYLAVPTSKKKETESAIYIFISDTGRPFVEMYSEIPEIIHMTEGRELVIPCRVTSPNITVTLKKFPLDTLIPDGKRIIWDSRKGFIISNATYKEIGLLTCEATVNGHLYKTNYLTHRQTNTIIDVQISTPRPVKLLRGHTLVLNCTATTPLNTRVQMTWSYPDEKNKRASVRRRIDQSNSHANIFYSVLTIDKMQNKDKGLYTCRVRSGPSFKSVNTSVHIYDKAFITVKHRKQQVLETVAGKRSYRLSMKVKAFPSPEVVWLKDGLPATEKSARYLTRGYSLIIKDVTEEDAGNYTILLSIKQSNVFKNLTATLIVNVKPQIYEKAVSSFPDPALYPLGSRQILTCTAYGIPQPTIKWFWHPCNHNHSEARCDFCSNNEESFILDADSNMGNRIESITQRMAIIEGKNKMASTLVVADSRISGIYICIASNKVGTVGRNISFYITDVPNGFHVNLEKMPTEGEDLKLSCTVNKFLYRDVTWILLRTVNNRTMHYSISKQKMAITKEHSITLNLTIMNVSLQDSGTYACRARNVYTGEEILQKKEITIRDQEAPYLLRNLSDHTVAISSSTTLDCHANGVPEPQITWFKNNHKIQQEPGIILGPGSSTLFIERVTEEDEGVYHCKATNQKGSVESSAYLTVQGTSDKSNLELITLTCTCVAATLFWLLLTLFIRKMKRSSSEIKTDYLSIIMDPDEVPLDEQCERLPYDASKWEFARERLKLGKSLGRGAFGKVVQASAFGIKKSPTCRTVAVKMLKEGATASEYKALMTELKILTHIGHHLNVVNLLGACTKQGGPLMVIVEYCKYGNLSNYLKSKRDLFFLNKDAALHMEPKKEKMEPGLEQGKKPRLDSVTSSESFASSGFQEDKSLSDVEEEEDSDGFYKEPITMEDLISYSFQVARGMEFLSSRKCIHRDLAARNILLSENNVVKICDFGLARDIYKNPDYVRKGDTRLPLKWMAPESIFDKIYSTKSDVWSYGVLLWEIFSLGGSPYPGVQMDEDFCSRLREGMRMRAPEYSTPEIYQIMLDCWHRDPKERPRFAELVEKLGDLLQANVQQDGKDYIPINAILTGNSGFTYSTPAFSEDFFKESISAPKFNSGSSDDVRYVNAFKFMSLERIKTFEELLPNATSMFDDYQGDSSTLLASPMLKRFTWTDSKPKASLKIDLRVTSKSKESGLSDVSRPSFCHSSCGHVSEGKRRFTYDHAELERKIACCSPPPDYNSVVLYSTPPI

Block 1
Organism: Sarcocystis neurona
Effect on: parasite growth
Concentration: 10 µM
Time: 96 h
Baseline: untreated
For `CC(C)(S)[C@@H](N)C(=O)O`, “log2 fold change” read 0.3.
Under “log2 fold change”, `O=C(O[C@H]1[C@H](Oc2ccccc2COC(=O)C2(O)C=CCCC2=O)O[C@H](CO)[C@@H](O)[C@@H]1O)c1ccccc1` (some centres unmarked) is recorded as 0.34.
`COc1cccc2c1C(=O)c1c(O)c3c(c(O)c1C2=O)C[C@@](O)(C(C)=O)C[C@@H]3O[C@H]1C[C@H](N)[C@H](O)[C@H](C)O1`: “log2 fold change” -4.93.

Further values, each from its own experiment
The viability of `O=C1Nc2cc(Br)ccc2/C1=C1/Nc2ccccc2/C1=N\O` is reported as 64.3% (HH; CCK-8; 2 µM, 48 h; baseline: untreated).
The remaining binding of `CN(C)C(=O)Cn1cc(-c2nc([C@@](C)(c3ccc(-c4cnc(N)nc4)cc3)C3CC3)no2)cn1` is reported as 100% (FLT1 (Homo sapiens, UniProt P17948); cell-free assay, competition with immobilised ligand; 1 µM).
`CCC[C@@H]1NC(=O)CSC[C@@H](C(=O)OCC)N(C)C(=O)[C@H](CC(C)C)NC(=O)[C@H](C)N(C)C(=O)[C@@H](CC(C)C)NC(=O)[C@H](C)N(C)C(=O)[C@@H]2CCCN2C(=O)[C@H](CC(C)C)NC(=O)CN(CCC)C1=O` has a logD of 0.664 (hydrocarbon/water).
For `c1ccc2c(-c3nn4c(-c5ccncc5)nnc4s3)c[nH]c2c1`, the remaining activity was 123% and 150% and 107% and 114% (α-galactosidase (human, wild type); healthy dermal fibroblasts; 0.5 µM, without ISRIB; baseline: DMSO).
The inhibition of `COCCc1ccc(-c2c(C)nc3c(N4CCOCC4)ccnn23)cn1` is reported as 11.5% (HTR1D (Homo sapiens, UniProt P28221); binding, radioligand binding; 10 µM).

Repeated from above (further values, each from its own experiment):
`CCC[C@@H]1NC(=O)CSC[C@@H](C(=O)OCC)N(C)C(=O)[C@H](CC(C)C)NC(=O)[C@H](C)N(C)C(=O)[C@@H](CC(C)C)NC(=O)[C@H](C)N(C)C(=O)[C@@H]2CCCN2C(=O)[C@H](CC(C)C)NC(=O)CN(CCC)C1=O` has a logD of 0.664 (hydrocarbon/water).
